# Results of several laboratories.
# Lines come from different studies, so protocols differ. “And” joins repeats or separate records; there may be more than shown. ± gives the spread as reported.
# Nuclear receptor subfamily 2 group C member 2 ligand-binding domain: Nuclear receptor subfamily 2 group C member 2, ligand-binding domain (Homo sapiens, UniProt P49116)
# Sequence of UniProt P49116 (whole entry, looked up): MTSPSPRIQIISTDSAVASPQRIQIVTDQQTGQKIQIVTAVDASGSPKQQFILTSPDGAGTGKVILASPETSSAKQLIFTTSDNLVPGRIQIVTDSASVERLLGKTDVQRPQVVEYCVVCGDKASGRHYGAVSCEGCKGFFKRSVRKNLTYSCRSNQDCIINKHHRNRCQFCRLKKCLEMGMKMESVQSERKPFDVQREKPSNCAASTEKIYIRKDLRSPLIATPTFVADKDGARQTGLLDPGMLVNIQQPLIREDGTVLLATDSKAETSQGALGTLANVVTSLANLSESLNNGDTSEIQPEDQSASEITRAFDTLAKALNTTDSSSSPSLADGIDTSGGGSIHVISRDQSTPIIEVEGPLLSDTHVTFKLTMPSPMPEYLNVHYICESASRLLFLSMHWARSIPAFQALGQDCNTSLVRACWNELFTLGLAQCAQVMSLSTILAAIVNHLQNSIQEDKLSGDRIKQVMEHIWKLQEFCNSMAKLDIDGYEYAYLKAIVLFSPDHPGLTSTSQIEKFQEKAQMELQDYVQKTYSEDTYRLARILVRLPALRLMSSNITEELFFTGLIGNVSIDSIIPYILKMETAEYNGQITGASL
Structure (SMILES),target or system,test,conditions,scale,endpoint,result
CCCOc1ccn2c(C(C)=O)cc(-c3ccccc3S(C)(=O)=O)c2c1,OCI-Ly1,,"0.1 µM, 120 h",,viability,113%
COc1cc(/C=C/C(=O)N2CCC=CC2=O)cc(OC)c1OC,MDA-MB-468,"qRT-PCR, item: FAS","30 µM, 6 h",baseline: time zero,mRNA level,126 ± 34.9%
Nc1ncnc2c1ncn2[C@@H]1C=C(CO)[C@@H](O)[C@H]1O,OCI-Ly1,,"1 µM, 120 h",,viability,3.1%
CN(C)c1ccc(C(=C2C=CC(=[N+](C)C)C=C2)c2ccc(N(C)C)cc2)cc1,iPSC-derived cardiomyocytes,"concentration-response curve, item: MyBP-C protein level",24 h,,EC50,6500 nM
C[C@H]1[C@H](C)CC[C@]2(C)CC[C@]3(C)C(=CC(=O)[C@@H]4[C@@]5(C)CC[C@@H](O)[C@](C)(C(=O)NCc6cn(-c7cccc(Br)c7)nn6)[C@@H]5CC[C@]43C)[C@H]12,human PBMCs,flow cytometry,10 µM,baseline: CD8- T cells,TIGIT positive cells,9.88%
Cc1cccc(-c2[nH]c(CNc3ccccc3F)nc2-c2ccc3ncnn3c2)n1,pomalidomide-resistant MM1.S cells,XTT,0.75 µM,higher = more viable cells,XTT absorbance,3.8 E-1 and 6.2 E-1 and 3.9 E-1
Cc1cc(C)c(CNC(=O)c2cc(-c3ccc(CN4CCOCC4)cc3)cc3c2cnn3C2CCCC2)c(=O)[nH]1,OCI-Ly1,,"1 µM, 120 h",,viability,149%
COc1cc2ncnc(Nc3ccc(Oc4ccccc4)cc3C)c2cc1OC.O=C(O)C(F)(F)F,COLO 205 (BRAF V600E),,"3 µM, added: trametinib 0 nM",,fractional effect,0.379 and 0.397
O=C(O)CCNc1cc(N2CCc3ccccc3CC2)nc(-c2ccccn2)n1,OCI-Ly1,,"1 µM, 120 h",,viability,106%
CCc1cnc(N2CCC(c3nc(COc4ccc(-n5cnnn5)cc4)cs3)CC2)nc1,HEK-293T,"RNA-seq GSEA, item: Hallmark apical surface",concentration not given,direction not given,normalized enrichment score,-0.801
C=CC1=C(C)c2cc3[n-]c(cc4nc(cc5[n-]c(cc1n2)c(C)c5C=C)C(C)=C4CCC(=O)O)c(CCC(=O)O)c3C.[Zn+2],SH-SY5Y,"RNA-seq, item: VCL mRNA","5 µM, 5 h",baseline: untreated cells,fold change,1.62
C=C1C(=O)O[C@H]2[C@H]1[C@H](OC(=O)/C(C)=C\C)CC(=C)[C@@H]1[C@H](O)[C@H]3O[C@@]3(C)[C@@]12O,iPSC-derived cardiomyocytes,concentration-response fit,concentration not given,baseline: vehicle,fitted top MyBP-C level,85%
Cc1nc2ccc(OCc3ccc(C(F)(F)F)cc3)cc2[nH]1,sample A patient iPSC-derived NPCs,MTS,"10 µM, 24 h",baseline: vehicle,viability,174 ± 11.3%
O=C(/C=C/N1C[C@H]2C[C@@H]1CN2c1ccccn1)c1ccccc1O,OCI-Ly1,,"0.5 µM, 120 h",,viability,50.9%
NCCCCCC(=O)O,Nuclear receptor subfamily 2 group C member 2 ligand-binding domain,SPR imaging,,,Kd,3.73 nM
O=C(C[C@@H](C(F)F)n1ccc(F)n1)N1CCC(O)(Cn2cnc3c(cnn3-c3ccc(F)cc3)c2=O)CC1,CHP-212 parental (wild-type USP7),annexin V-PI flow cytometry,"1 µM, 48 h",,apoptotic cells (early plus late),44.4% and 40.5% and 36.4% and 53.8% and 50.3% and 34.5%
CCn1cc(-c2cc(Cn3ccoc3=N)cc3c2CCN([C@@H](C)c2cc(OC)ccn2)C3=O)c(C(F)(F)F)n1,SW1417,"cell growth, inhibitor",120 h,,EC50,358 nM
Cc1cc(Nc2ncc(Cl)c(Nc3ccccc3S(=O)(=O)C(C)C)n2)c(OC(C)C)cc1C1CCNCC1,CLB-BAR,"phosphoproteomics LC-MS/MS, item: SOS1 phosphorylation","200 nM, 60 min",baseline: untreated,log2 fold change,-3.08
Nc1ccc(C(=O)O)c(O)c1,Nuclear receptor subfamily 2 group C member 2 ligand-binding domain,SPR imaging,,,Kd,1.55 nM
COc1cnc2cccc(N3CCc4c(cc(Cn5ccnc5C)cc4-c4cn(C)nc4C(F)(F)F)C3=O)c2c1,SNU878,"cell growth, inhibitor",120 h,,EC50,> 30000 nM
Cn1cc(-c2ccc(-c3cncc(Cl)c3N3CCC4(CCNC4=O)CC3)cc2)cn1,COLO 205,"gene expression, microarray, item: P4HA2 mRNA","concentration not given, 2 h",baseline: untreated cells,log2 fold change,1.76
CCCCCOc1ccc(/C=C\c2cccc(O)c2C(=O)O)cc1,OCI-Ly1,,"0.1 µM, 120 h",,viability,193%
[Cl-].[Cl-].[Ru+2].c1cnc2c(c1)ccc1cccnc12.c1cnc2c(c1)ccc1cccnc12.c1csc(-c2ccc(-c3ccc(-c4nc5c6cccnc6c6ncccc6c5[nH]4)s3)s2)c1,SK-MEL-28,,"normoxia, added: visible light 100 J/cm2",,EC50,57 nM
N#C/C(=C\c1ccc(-c2cc(Cl)ccc2Cl)o1)C(=O)Nc1cccc2ncccc12,OCI-Ly1,,"0.5 µM, 120 h",,viability,96.3%
O=C(Nc1nnc2[nH]c(=S)[nH]c(-c3ccc(Cl)cc3)c1-2)c1ccccc1,786-0,NCI60 SRB,10 µM,,growth percent,99.7%

# Repeated from above:
Structure (SMILES),target or system,test,conditions,scale,endpoint,result
COc1cnc2cccc(N3CCc4c(cc(Cn5ccnc5C)cc4-c4cn(C)nc4C(F)(F)F)C3=O)c2c1,SNU878,"cell growth, inhibitor",120 h,,EC50,> 30000 nM
Cn1cc(-c2ccc(-c3cncc(Cl)c3N3CCC4(CCNC4=O)CC3)cc2)cn1,COLO 205,"gene expression, microarray, item: P4HA2 mRNA","concentration not given, 2 h",baseline: untreated cells,log2 fold change,1.76
CCCCCOc1ccc(/C=C\c2cccc(O)c2C(=O)O)cc1,OCI-Ly1,,"0.1 µM, 120 h",,viability,193%
